Assay results gathered from unrelated publications.
Each line is one published result; not all experiments were run side by side. ± gives the spread as reported. Square brackets hold non-standard residues; d marks the D form. Ends that are not written are not given here.
SLC10A1: Hepatic sodium/bile acid cotransporter (SLC10A1, Homo sapiens, UniProt Q14973)
Protein farnesyltransferase: Protein farnesyltransferase (Homo sapiens, UniProt P49354+P49356)
CXCR4: C-X-C chemokine receptor type 4 (CXCR4, Homo sapiens, UniProt P61073)
T1: RNA aptamer optimized 10-59; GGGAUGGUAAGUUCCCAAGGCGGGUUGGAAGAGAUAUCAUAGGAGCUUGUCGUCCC

`CNCCCN1c2ccccc2CCc2ccccc21` — result for phenytoin uptake: “no effect” (Monocarboxylate transporter 8 (SLC16A2, Rattus norvegicus, UniProt Q8K1P8); inhibitor; Xenopus oocytes expressing rat MCT8; 1 mM, together with: [14C]phenytoin 9.09 µM; relative to: water-injected oocytes).
`A[Phe(4-F)]R[Cha][hArg]Y (Phe(4-F) = N[C@@H](Cc1ccc(F)cc1)C(=O)O; Cha = N[C@@H](CC1CCCCC1)C(=O)O; hArg = N=C(N)NCCCC[C@H](N)C(=O)O)`: “binding free energy” roughly -11.8 kcal/mol (Proteinase-activated receptor 1 (F2R, Homo sapiens, UniProt P25116); AFM force spectroscopy; proteoliposomes).
`COC(=O)[C@H]1[C@H]2C[C@@H]3c4[nH]c5cc(OC)ccc5c4CCN3C[C@H]2C[C@@H](OC(=O)c2cc(OC)c(OC)c(OC)c2)[C@@H]1OC` gave a taurocholate uptake of 83.8 ± 8.3% (SLC10A1; inhibitor; NTCP-HEK293; 25 µM; relative to: without compound).
`CKVL`: “relative fluorescence increase” less than 0.05 (Protein farnesyltransferase; enzyme activity, substrate, fluorimetric; peptide; 3 µM, 30 min, together with: 9 µM farnesyl diphosphate; relative to: dansyl-GCVLS (set to 1.0)).
`CC=CC=CCO` has a fluorescence intensity of 46.2 ± 0.83% (Chilo suppressalis CSP2; binding, competitive fluorescence displacement; 30 µM, pH 7.4).
`COC(=O)C1=C(C)NC(C)=C(C(=O)OCCN(C)Cc2ccccc2)C1c1cccc([N+](=O)[O-])c1` (centres unmarked) has a taurocholate uptake of 81.8 ± 6.5% (SLC10A1; inhibitor; HEK293 expressing NTCP; 100 µM, 5 min, together with: taurocholate 10 µM; relative to: no compound).
The Vmax of `Oc1ccc(-c2ccc(Cl)cc2)c(Cl)c1` is reported as 56.1 ± 42.6 nmol/min/mg (Sulfotransferase 2A1 (SULT2A1, Homo sapiens, UniProt Q06520); substrate, HPLC of PAP formation; substrate inhibition fit, together with: PAPS 200 µM).
`Nc1nc2c(ncn2[C@@H]2O[C@H](COP(=O)(O)OP(=O)(O)OP(=O)(O)O)[C@@H](O)[C@H]2O)c(=O)[nH]1` has a Kd of 250 nM (T1, RNA aptamer optimized 10-59; ultrafiltration; apparent, together with: GTP).
For `CSIL`, “relative fluorescence increase” read 0.18 (Protein farnesyltransferase; enzyme activity, substrate, fluorimetric; peptide; 3 µM, 30 min, together with: 9 µM farnesyl diphosphate; relative to: dansyl-GCVLS (set to 1.0)).
For `Cc1ccc(S(=O)(=O)NCc2ccc(CNC(=O)c3ccc(F)cc3)cc2)cc1`, “lowest effective concentration” read 1 nM (CXCR4; binding, competitor, rhodamine fluorescence; MDA-MB-231; semi-quantitative screen, together with: biotinylated TN14003).
`CC(C)C[C@H](NC(=O)[C@H](C)NC(=O)[C@H](C)NC(=O)[C@H](CC(C)C)NC(=O)[C@H](CCC(=O)O)NC(=O)[C@H](CCCCN)NC(=O)[C@H](CC(C)C)NC(=O)[C@H](CCCNC(=N)N)NC(=O)[C@H](C)NC(=O)[C@H](CCCNC(=N)N)NC(=O)[C@H](CC(C)C)NC(=O)[C@H](Cc1c[nH]cn1)NC(=O)[C@H](C)NC(=O)[C@H](CC(C)C)NC(=O)[C@H](CCCCN)NC(=O)CNC(=O)CNC(=O)[C@H](CCCCN)NC(=O)[C@H](C)NC(=O)CNC(=O)[C@H](CCCCN)NC(=O)CNC(=O)CN)C(=O)N[C@@H](CCC(=O)O)C(=O)N[C@@H](C)C(=O)N[C@@H](C)C(=O)N[C@@H](C)C(=O)N[C@@H](CCCCN)C(=O)O` — result for “association constant K1”: less than 18000 M⁻¹ (Calmodulin-1, Ca2+-bound N-lobe (CALM1, Homo sapiens, UniProt P0DP23); ITC; isolated calmodulin N-lobe; 50 µM, pH 7.0, 27 °C, 0.5 mM N-lobe, together with: 1 mM CaCl2).
Under “fold shift in IC50”, `peginesatide` is recorded as 12.4 fold (EPOR extracellular domain-Fc fusion (human); binding, competitor; together with: rHu-EPO; relative to: compound-bound EPOR over rHu-EPO-bound EPOR).
Under “time to half phosphorylation”, `C[C@H](NC(=O)[C@H](CCCNC(=N)N)N(C)C(=O)[C@@H]1CCCN1C(=O)[C@H](CCCNC(=N)N)NC(=O)CNC(=O)c1ccc2c(c1)C1(OC2=O)c2ccc(O)cc2Oc2cc(O)ccc21)C(=O)N[C@@H](Cc1ccccc1)C(=O)N[C@H](C(=O)N[C@@H](Cc1ccccc1)C(=O)N[C@H](C)C(=O)N[C@@H](CCC(=O)O)C(=O)NCC(N)=O)[C@@H](C)O` is recorded as 306 min (RAC-alpha serine/threonine-protein kinase (AKT1, Homo sapiens, UniProt P31749); substrate, CE-LIF; 25 µM, pH 7.0, 30 °C, enzyme 6 nM, together with: ATP 1 mM).
For `CCCCC(C(=O)COc1c(F)c(F)cc(F)c1F)n1cc(C2(N)CCN(C(C)=O)CC2)nn1` (centres unmarked), “second-order inactivation rate constant” read less than 20 M⁻¹ s⁻¹ (DPAP1 (Plasmodium falciparum, UniProt Q8IIJ9); inhibitor; parasite lysate; together with: (Pro-Arg)2-rhodamine substrate).
For `O=C(CCn1ccc2ccccc21)N(c1ccc(F)cc1)c1ccc(F)cc1`, “maximum fold increase” read 3.5 (Proteasome subunit alpha type-2/Proteasome subunit alpha type-6, 20S proteasome (Homo sapiens, UniProt P25787+P60900); proteolysis, activator, fluorogenic peptide; purified 20S proteasome; up to 30 µM, together with: Suc-LLVY-AMC, Z-LLE-AMC, Boc-LRR-AMC; relative to: vehicle).
For `CC[C@H](C)C(=O)O[C@H]1C[C@@H](C)C=C2C=C[C@H](C)[C@H](CC[C@@H]3C[C@@H](O)CC(=O)O3)[C@H]21`, “remaining protein level” read 266 ± 29% (3-hydroxy-3-methylglutaryl-coenzyme A reductase (HMGCR, Homo sapiens, UniProt P04035); Western blot; HepG2; 1 µM, 16 h; relative to: untreated control).
Under “breakthrough time change”, `N.N.N.N.O=P(O)(O)OP(=O)(O)OP(=O)(O)OC[C@H]1O[C@@H](n2cnc3c(NC4CCCC4)ncnc32)[C@H](O)[C@@H]1O` is recorded as 24.9% (Uracil nucleotide/cysteinyl leukotriene receptor, short isoform (GPR17, Homo sapiens, UniProt Q13304, R283I); frontal affinity chromatography-MS; mutated receptor IAM column; concentration not given; relative to: wild type column).
The Vmax of `COc1ccc(-c2coc3cc(O)cc(O)c3c2=O)cc1` is reported as 0.379 nmol/min/mg (UDP-glucuronosyltransferase 1A9 (UGT1A9, Homo sapiens, UniProt O60656); substrate; pH 7.4, 37 °C).
`O=C(NCc1ccc(F)cc1)C1CCN(S(=O)(=O)c2cc(Cl)cc(Cl)c2)CC1` has a remaining activity of 18% (Na(+)/citrate cotransporter (Homo sapiens, UniProt Q86YT5); citrate uptake; HepG2; 10 µM, 24 h after washout, together with: 10 mM LiCl; relative to: untreated).
For `CNc1nc(Cl)nc2c1ncn2[C@@H]1O[C@H](COP(=O)(O)OP(=O)(O)OP(=O)(O)O)[C@@H](O)[C@H]1O.N.N.N.N`, the breakthrough time was 9.22 min (Uracil nucleotide/cysteinyl leukotriene receptor (GPR17, Homo sapiens, UniProt Q13304); frontal affinity chromatography-MS; immobilized on IAM column; 1 µM, compound mixture).
`CN(Cc1ccc(CN(C)Cc2cccnc2)cc1)Cc1cccnc1`: “lowest effective concentration” greater than 1000 nM (CXCR4; binding, competition binding; MDA-MB-231; semi-quantitative screen, together with: biotinylated TN14003).
`NC(=O)c1cccc2[nH]c(-c3ccc(C(=O)N4CCn5c(nnc5C(F)(F)F)C4)cc3)nc12`: “PARP1 bound to DNA” 14.7 ± 2% (Poly [ADP-ribose] polymerase 1 (PARP1, Homo sapiens, UniProt P09874); DNA binding, fluorescence polarization DNA competition; 100 µM, 200 s, together with: unlabeled competitor DNA 2 µM).
With `O=C(Nc1ccc2c(O)c(N=Nc3ccc(N=Nc4ccc(S(=O)(=O)[O-])cc4)cc3S(=O)(=O)[O-])c(S(=O)(=O)[O-])cc2c1)Nc1ccc2c(O)c(N=Nc3ccc(N=Nc4ccc(S(=O)(=O)[O-])cc4)cc3S(=O)(=O)[O-])c(S(=O)(=O)[O-])cc2c1.[Na+].[Na+].[Na+].[Na+].[Na+].[Na+]` the Hill coefficient was roughly 3 (ancestral DyP peroxidase wild type; peroxidase activity, substrate; pH 4.0, 25 °C, pH 4.5 for Mn2+).
With `CC(C)C[C@H](NC(=O)CNC(=O)c1cc(Cl)ccc1Cl)B(O)O` the AUE(0-168 h) was 888 % inhibition h (Proteasome Macropain subunit MB1 (PSMB5, Homo sapiens, UniProt P28074); 20S proteasome activity; human, whole blood; iv, 0.5 mg/m^2, day 1).
`farnesene` — result for “fluorescence intensity of probe”: 49.7 ± 1.29% (chemosensory protein 1 (Chilo suppressalis, UniProt V9PY22); ligand, competitive fluorescence binding; concentration not given, pH 7.4, highest concentration tested, together with: 2 µM fluorescent probe).
`Oc1cc(Cl)ccc1Oc1ccccc1` — result for “dissociation rate constant”: 1.7 ± 0.3 h⁻¹ (Enoyl-[acyl-carrier-protein] reductase [NADPH] FabI (Staphylococcus aureus, UniProt Q6GI75); enzyme activity, inhibitor, progress curve kinetics).
